Experimental data of several laboratories.
Numbered parts are unrelated; each lists some results of a single study.

Block 1 — method: RNA Bind-n-Seq; form: RNA; medium: in vitro; concentration: 1 µM; notes: whole 134-nt RNA, ends assumed; together with: 150 mM KCl; relative to: input library; reading: higher = stronger binding
Target: Ras GTPase-activating protein-binding protein 1, C-terminal RGG region (G3BP1, Homo sapiens, UniProt Q13283)
Sequence of UniProt Q13283 (whole entry, looked up): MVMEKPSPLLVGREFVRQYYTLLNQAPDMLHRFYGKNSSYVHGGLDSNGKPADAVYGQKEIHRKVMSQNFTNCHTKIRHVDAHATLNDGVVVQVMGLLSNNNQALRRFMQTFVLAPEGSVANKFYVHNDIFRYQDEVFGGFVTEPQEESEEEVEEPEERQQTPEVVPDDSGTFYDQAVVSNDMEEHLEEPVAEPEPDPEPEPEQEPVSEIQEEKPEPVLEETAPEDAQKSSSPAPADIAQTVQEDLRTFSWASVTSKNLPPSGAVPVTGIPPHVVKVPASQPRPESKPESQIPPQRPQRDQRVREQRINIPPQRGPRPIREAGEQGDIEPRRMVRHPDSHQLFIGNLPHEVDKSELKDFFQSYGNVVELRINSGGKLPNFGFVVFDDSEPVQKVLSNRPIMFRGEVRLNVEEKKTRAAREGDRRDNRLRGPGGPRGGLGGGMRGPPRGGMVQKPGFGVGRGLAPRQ
Constant ends, left off below: GGGAGUUCUACAGUCCGACGAUC … UGGAAUUCUCGGGUGUCAAGG
The log2 enrichment of `UAACUUUAGAGGAGGAUCUGAUGGAUAUGGCAUUGGACGUGGAUUUGGGGAUGGCUAUAAUGGGUAUGGAGGAGGACCUGGAGGUGGCAA` is reported as -1.41.
For `UAACUUUAGAGGAGGAUCUGAUGGAUAUGGCAGUGGACGUGGAUUUGGGGAUGGCUAUAAUGGGUAUGGAGGAUGACCUGGAGGUGGCAA`, the log2 enrichment was -1.26.
With `UGGGGAGACUACGAUGACAGCGCCUUCAUGGAGCCCAGGUACCACGUCCGUGGAGAAGAUCUGGACAAGCUCCACAGAGCUGCCUGGUGG` the log2 enrichment was -1.64.
`UAUCAGGAGGGCAGACUUCAAAAGCUACUAAAAAUGAACGGCCCUGAAGAUCUUCCCAAGUCCUAUGACUAUGACCUUAUCAUCAUUGGA` has a log2 enrichment of -1.92.
For `UUUCUCCAAGGACAUCAAGGUGCCCAAGAGCCGCUACCUGGGCUACAUCAAGGACUACGAGGGAGCGACGCUGAUGGAGUGUGAGCUGAA`, the log2 enrichment was -1.71.
`UGGCCCUGGUGCCAUGCGGGGAGGAAGAGGUGGCCUCAUGGAUCGUGGUGGUCCCGGUGGAAUGUUCAGAGGUGGCCGUGGUGGAGACAG` gave a log2 enrichment of 1.88.
With `CAAGUCCUGUGCUACACAUCGUAUGUACCGAAUCGGUUUUUGGUUUUUGGUUUGGAAAGUAUUAUGUUACGCCGUUCGGAUCUGCACUUC` the log2 enrichment was -1.59.
For `UGGAACAGCAGCUGCCACUCAGGCGUAAUUCCCACCUAGAGGAGAGUUUCACAUCCACCGAAGAAUCUUCCGAAGAAAAUGUCAACUUUU`, the log2 enrichment was -0.296.

Block 2 — method: protein binding microarray; form: double-stranded DNA, one strand shown; medium: in vitro; concentration: not given; relative to: not given; reading: higher = stronger binding
Target: Histone acetyltransferase KAT6A, both winged helices, GST fusion (KAT6A, Homo sapiens, UniProt Q92794, residues 1-181)
Notes: 8-mer, flanks averaged, mean of 2 arrays, mostly near background
Residues (chain): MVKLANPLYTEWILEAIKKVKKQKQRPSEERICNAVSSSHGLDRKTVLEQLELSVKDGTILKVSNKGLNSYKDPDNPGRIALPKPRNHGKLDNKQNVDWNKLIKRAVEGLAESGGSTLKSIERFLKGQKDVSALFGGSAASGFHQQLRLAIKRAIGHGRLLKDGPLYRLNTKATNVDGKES
For `AGCTTGGC`, the E-score was -0.00605.
For `AAGTAGGG`, the E-score was -0.268.
`TCAACAAA` gave an E-score of -0.0919.
For `GATAGAAC`, the E-score was -0.122.
With `GCGACCAC` the E-score was 0.211.
With `CGAAGCGC` the E-score was 0.315.
`TATTCGAA` gave an E-score of -0.104.

Block 3 — method: aptamer microarray, sandwich; form: DNA with 2'F-ANA; medium: in vitro; concentration: 200 nM; together with: Cy3 exosite-II aptamer, 400 nM; reading: higher = stronger binding; sequence: GGTTGGTGTGGTTGG
Target: Prothrombin, mature alpha-thrombin (F2, Homo sapiens, UniProt P00734)
Notes: whole 15-mer aptamer, many near background
`2'F-ANA at 2 3 5 8 9 10 13 14 15` — result for “mean fluorescence intensity”: 65.1 a.u.
`2'F-ANA at 2 3 5 7 9 10 14` — result for “mean fluorescence intensity”: 82.6 a.u.
Under “mean fluorescence intensity”, `2'F-ANA at 1 7 10 13 15` is recorded as 52.7 a.u.
Under “mean fluorescence intensity”, `2'F-ANA at 1 6 7 9 11 12 13 14 15` is recorded as 61 a.u.
`2'F-ANA at 2 3 4 6 7 9 10 11 12 13 14 15`: “mean fluorescence intensity” 143 a.u.

Mixed results
For `PhoQ, residues 284 288 289 292 302 303 TAVSDG`, the fold induction was 0.87 (PhoP, residues 12 14 15 18 19 SYFRT (Escherichia coli, UniProt P23836); Sort-seq, refers to: YFP reporter; E. coli; PhoQ-PhoP variant library, together with: 10 µM Mg2+; relative to: high Mg2+ state, higher = stronger signaling).

Repeated from above (block 1):
With `UGGGGAGACUACGAUGACAGCGCCUUCAUGGAGCCCAGGUACCACGUCCGUGGAGAAGAUCUGGACAAGCUCCACAGAGCUGCCUGGUGG` the log2 enrichment was -1.64.
For `UGGAACAGCAGCUGCCACUCAGGCGUAAUUCCCACCUAGAGGAGAGUUUCACAUCCACCGAAGAAUCUUCCGAAGAAAAUGUCAACUUUU`, the log2 enrichment was -0.296.
